Measured values collected from several papers.
Parts stem from different laboratories: compare values within a part only.
Sequence of UniProt Q15418 (whole entry, looked up): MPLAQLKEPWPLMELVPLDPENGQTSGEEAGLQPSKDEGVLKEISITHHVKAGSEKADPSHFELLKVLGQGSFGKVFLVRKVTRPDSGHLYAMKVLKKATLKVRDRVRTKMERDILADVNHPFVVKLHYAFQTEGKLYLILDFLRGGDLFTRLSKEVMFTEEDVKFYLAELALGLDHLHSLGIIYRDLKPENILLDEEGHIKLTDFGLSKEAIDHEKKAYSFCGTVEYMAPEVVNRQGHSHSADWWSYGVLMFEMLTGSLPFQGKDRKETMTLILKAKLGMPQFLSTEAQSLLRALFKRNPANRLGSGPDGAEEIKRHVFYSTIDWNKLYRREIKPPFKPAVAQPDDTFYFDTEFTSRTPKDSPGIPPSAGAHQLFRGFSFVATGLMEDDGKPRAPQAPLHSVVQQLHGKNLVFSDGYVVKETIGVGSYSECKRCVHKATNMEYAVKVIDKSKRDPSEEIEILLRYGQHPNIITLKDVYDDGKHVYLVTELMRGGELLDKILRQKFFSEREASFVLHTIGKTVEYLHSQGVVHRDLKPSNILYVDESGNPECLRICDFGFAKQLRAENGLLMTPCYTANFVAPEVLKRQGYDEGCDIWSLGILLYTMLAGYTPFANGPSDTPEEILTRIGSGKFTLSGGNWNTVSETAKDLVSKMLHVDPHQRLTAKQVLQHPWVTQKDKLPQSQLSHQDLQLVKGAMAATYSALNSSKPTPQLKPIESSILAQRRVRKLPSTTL
Sequence of UniProt P53779 (whole entry, looked up): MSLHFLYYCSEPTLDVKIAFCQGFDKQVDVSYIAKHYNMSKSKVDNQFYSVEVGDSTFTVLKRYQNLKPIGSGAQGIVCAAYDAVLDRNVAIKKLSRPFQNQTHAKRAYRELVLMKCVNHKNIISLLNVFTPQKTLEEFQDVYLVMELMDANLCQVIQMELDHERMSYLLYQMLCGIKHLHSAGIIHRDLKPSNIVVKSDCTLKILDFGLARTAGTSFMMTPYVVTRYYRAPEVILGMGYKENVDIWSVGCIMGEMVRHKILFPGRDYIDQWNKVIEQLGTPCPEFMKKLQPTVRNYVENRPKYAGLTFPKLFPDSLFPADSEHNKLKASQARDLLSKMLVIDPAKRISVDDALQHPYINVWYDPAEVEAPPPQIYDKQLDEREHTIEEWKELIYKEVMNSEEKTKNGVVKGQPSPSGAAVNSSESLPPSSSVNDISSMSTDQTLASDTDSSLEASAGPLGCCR
Sequence of UniProt O00506 (whole entry, looked up): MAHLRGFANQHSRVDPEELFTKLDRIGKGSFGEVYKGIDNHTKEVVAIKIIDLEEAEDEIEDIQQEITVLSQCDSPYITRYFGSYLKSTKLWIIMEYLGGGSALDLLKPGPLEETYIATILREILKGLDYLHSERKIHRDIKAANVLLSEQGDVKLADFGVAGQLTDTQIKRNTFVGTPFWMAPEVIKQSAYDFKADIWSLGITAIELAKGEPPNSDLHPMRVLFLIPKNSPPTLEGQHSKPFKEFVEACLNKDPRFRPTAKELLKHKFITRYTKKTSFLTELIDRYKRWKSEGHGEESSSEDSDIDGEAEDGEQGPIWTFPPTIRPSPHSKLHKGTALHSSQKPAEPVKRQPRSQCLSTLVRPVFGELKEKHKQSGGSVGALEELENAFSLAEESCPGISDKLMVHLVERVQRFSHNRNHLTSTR
Sequence of UniProt Q9NWZ3 (whole entry, looked up): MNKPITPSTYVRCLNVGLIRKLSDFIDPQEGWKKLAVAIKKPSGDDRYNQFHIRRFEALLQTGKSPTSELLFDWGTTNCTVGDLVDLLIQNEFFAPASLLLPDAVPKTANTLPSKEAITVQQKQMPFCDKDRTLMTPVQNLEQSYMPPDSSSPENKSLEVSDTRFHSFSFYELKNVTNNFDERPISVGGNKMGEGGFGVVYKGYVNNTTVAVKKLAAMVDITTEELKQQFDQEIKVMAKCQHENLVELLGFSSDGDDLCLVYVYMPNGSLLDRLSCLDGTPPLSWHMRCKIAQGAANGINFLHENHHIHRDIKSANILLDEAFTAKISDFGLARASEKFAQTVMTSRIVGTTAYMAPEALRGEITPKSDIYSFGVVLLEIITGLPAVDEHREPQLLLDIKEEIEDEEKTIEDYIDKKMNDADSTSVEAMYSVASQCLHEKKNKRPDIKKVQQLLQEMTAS
Sequence of UniProt Q04912 (whole entry, looked up): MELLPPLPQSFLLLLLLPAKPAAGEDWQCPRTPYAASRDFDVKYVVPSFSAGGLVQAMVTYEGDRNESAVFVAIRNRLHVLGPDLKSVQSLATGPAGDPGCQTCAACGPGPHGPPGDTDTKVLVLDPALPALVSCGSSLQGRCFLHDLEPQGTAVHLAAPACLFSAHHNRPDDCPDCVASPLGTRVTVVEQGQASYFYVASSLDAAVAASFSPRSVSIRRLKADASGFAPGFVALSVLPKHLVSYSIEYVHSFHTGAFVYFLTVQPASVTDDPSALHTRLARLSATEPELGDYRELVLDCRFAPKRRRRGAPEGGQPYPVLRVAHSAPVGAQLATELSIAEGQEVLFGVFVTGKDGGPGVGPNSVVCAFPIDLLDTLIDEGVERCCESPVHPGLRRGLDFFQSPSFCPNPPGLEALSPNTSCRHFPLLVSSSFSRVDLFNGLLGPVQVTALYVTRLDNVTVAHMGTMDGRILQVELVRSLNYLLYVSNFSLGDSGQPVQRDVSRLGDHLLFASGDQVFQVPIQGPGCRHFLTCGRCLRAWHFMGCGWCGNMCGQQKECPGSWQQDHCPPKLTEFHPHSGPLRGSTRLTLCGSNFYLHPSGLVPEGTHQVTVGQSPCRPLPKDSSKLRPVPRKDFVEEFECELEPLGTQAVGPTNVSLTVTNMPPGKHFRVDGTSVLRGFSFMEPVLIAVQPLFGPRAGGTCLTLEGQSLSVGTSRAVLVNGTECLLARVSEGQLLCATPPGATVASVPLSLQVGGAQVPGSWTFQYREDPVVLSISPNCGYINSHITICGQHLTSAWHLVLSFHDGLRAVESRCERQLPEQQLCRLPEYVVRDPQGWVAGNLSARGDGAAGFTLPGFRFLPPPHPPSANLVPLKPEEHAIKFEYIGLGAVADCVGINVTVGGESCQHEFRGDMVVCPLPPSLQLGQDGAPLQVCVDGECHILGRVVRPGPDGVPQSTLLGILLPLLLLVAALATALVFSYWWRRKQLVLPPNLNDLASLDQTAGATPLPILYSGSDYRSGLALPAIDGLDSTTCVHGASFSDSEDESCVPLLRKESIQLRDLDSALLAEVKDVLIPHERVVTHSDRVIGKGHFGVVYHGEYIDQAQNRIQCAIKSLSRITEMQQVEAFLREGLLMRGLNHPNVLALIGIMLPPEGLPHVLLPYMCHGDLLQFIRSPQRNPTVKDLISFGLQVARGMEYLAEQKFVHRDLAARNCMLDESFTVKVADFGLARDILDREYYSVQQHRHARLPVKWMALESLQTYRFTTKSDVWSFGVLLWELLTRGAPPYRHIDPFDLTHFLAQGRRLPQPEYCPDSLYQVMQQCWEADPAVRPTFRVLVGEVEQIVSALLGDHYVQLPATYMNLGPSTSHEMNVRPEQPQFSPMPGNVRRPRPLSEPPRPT
Sequence of UniProt Q8IY84 (whole entry, looked up): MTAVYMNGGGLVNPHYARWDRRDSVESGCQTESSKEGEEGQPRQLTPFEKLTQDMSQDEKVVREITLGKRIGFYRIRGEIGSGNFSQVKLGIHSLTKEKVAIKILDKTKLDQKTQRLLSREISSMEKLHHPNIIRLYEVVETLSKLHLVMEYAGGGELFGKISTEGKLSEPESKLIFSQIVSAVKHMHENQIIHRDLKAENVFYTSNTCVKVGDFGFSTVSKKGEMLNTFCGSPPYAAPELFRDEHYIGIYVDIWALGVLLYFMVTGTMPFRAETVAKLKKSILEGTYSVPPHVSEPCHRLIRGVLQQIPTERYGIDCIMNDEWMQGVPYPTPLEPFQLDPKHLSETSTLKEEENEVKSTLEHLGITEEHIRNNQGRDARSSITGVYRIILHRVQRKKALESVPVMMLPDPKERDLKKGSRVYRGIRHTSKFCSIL

Sample 1 — effect on: enzyme activity; mode: inhibitor; concentration: 0.5 µM; baseline: control
Target: Serine/threonine-protein kinase Chk2 (CHEK2, Homo sapiens, UniProt O96017)
Sequence of UniProt O96017 (whole entry, looked up): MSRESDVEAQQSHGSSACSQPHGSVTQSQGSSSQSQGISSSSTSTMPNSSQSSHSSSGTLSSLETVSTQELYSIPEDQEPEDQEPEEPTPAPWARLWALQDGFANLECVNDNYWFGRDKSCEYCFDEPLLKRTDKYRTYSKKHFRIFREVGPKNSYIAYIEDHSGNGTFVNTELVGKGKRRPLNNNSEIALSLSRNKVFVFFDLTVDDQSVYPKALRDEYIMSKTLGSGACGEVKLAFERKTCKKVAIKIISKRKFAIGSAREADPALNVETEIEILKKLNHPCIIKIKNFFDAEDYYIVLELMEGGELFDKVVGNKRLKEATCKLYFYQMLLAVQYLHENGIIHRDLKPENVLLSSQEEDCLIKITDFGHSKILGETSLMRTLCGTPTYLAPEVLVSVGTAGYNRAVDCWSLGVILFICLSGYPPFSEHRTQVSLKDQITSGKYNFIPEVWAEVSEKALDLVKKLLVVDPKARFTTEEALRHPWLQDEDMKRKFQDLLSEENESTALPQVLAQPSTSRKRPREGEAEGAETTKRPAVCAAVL
| SMILES | remaining activity [%] |
| --- | --- |
| O=c1c2ccccc2[nH]c(=S)n1CCN1CCC(=C(c2ccc(F)cc2)c2ccc(F)cc2)CC1 | 106 |
| Cn1sc(=O)n(Cc2ccccc2)c1=O | 108 |
| CNC(=O)c1cc(Oc2ccc(NC(=O)Nc3ccc(Cl)c(C(F)(F)F)c3)cc2)ccn1 | 102 |
| CCOC(=O)c1c(C)[nH]c(/C=C2\C(=O)Nc3ccccc32)c1C | 70.5 |
| OCC(O)CCON=C1C(c2c(O)[nH]c3ccccc23)=Nc2ccccc21 (stereo not drawn) | 26.9 |
| CN(C)c1ccc(C=C2C(=O)Nc3ccccc32)cc1 | 91.6 |
| CC(C)[C@H](CO)Nc1nc(Nc2cc(N)cc(Cl)c2)c2ncn(C(C)C)c2n1 | 96.3 |
| O=S(=O)(c1cccc2cnccc12)N1CCCNCC1 | 98.9 |
| O=C(O)c1ccc2c3c1cccc3c(=O)n1c3ccccc3nc21 | 75.2 |
| O=C(CCCc1ccc(-c2ccccc2F)cc1)Nc1ccc(O)cc1 | 101 |
| COc1ccc(CNC(=O)Nc2ncc([N+](=O)[O-])s2)cc1 | 99.2 |
| COc1cc2ncnc(Nc3ccc(Oc4ccccc4)cc3)c2cc1OC | 29.6 |
| O=C1NC(=O)C(c2cn(CCCn3ccnc3)c3ccccc23)=C1Nc1ccccc1 | 88.3 |
| Cn1c2ccccc2c2c3c(c4c5ccccc5n(CCC#N)c4c21)CNC3=O | 50.2 |
| COc1cc2nccc(Oc3ccc(NC(=S)NC(=O)c4ccccc4C)cc3)c2cc1OC | 67 |

Sample 2 — effect on: AlphaScreen signal; technique: AlphaScreen counter screen; sample: His6 peptide without bromodomain; concentration: 50 µM; notes: assay interference check
| SMILES | inhibition [%] |
| --- | --- |
| CC(C)n1cnc2c(Nc3cccc(Cl)c3)nc(NCCO)nc21 | 33.8 |
| Cc1ccc(C(=O)Nc2ccc(CN3CCN(C)CC3)c(C(F)(F)F)c2)cc1C#Cc1cnc2cccnn12 | 53 |
| CN1CCN(c2nccn3c(-c4ccoc4)cnc23)CC1 | 21.1 |
| N#CC(=Cc1ccco1)c1nc2ccccc2s1 | 15.3 |
| Cc1cccc(-c2nn3c(c2-c2ccnc4ccc(C(N)=O)cc24)CCC3)n1 | -0.2 |
| O=C(NCc1ccco1)C(=O)c1cn(CC(=O)N2CCOCC2)c2ccccc12 | 22.9 |

Sample 3 — technique: LC-MS/MS; sample: plasma
Structure (SMILES): COc1ccc(-c2c(Nc3ccccn3)[nH]c3c(C4=CCCCC4)c(-c4ccccc4)nn3c2=O)cc1
| item | species | route | dose | time | notes | plasma concentration |
| --- | --- | --- | --- | --- | --- | --- |
| methionine | human cancer patients |  | 200 mg BID | 0 h | mean, cycle 1 day 200 | 74400 ng/mL |
|  | human | oral | 200 mg twice daily | 1 h | median | 12100 ng/mL |
| methionine | human cancer patients | QD | dose not given | 6 h | geometric mean, cycle 1 day 50 | 64800 ng/mL |
| S-adenosylmethionine | human cancer patients |  | 50 mg QD | 0 h | mean, cycle 1 day 50 | 24.1 ng/mL |
| methionine | human cancer patients |  | 200 mg BID | 8 h | mean, cycle 1 day 200 | 75800 ng/mL |
| methionine | human cancer patients | QD | dose not given | 0 h | median, cycle 1 day 50 | 80300 ng/mL |

Sample 4 — SMILES: CSc1cccnc1N1CCN(Cc2nc3ccccc3[nH]2)CC1; effect on: cell-free assay; technique: competition with immobilised ligand; concentration: 1 µM
| target | remaining binding [%] |
| --- | --- |
| MST1R (Homo sapiens, UniProt Q04912) | 100 |
| Ribosomal protein S6 kinase alpha-1, N-terminal kinase domain (RPS6KA1, Homo sapiens, UniProt Q15418) | 100 |
| STK25 (Homo sapiens, UniProt O00506) | 100 |
| MAPK10 (Homo sapiens, UniProt P53779) | 66 |
| Tyrosine-protein kinase JAK2, JH1 (JAK2, Homo sapiens, UniProt O60674) | 65 |
| ROS1 (Homo sapiens, UniProt P08922) | 100 |
| IRAK4 (Homo sapiens, UniProt Q9NWZ3) | 74 |
| NIM1K (Homo sapiens, UniProt Q8IY84) | 84 |
| Ribosomal protein S6 kinase alpha-1, C-terminal kinase domain (RPS6KA1, Homo sapiens, UniProt Q15418) | 100 |

Some of these lines once more (sample 1):
| SMILES | remaining activity [%] |
| --- | --- |
| O=c1c2ccccc2[nH]c(=S)n1CCN1CCC(=C(c2ccc(F)cc2)c2ccc(F)cc2)CC1 | 106 |
| COc1cc2nccc(Oc3ccc(NC(=S)NC(=O)c4ccccc4C)cc3)c2cc1OC | 67 |
| COc1cc2ncnc(Nc3ccc(Oc4ccccc4)cc3)c2cc1OC | 29.6 |
